{"data": "Results gathered from unrelated publications", "note": "Each numbered part is a random draw from the data of one study; scales do not carry over between parts.", "chain of UniProt O14936 (whole entry, looked up)": "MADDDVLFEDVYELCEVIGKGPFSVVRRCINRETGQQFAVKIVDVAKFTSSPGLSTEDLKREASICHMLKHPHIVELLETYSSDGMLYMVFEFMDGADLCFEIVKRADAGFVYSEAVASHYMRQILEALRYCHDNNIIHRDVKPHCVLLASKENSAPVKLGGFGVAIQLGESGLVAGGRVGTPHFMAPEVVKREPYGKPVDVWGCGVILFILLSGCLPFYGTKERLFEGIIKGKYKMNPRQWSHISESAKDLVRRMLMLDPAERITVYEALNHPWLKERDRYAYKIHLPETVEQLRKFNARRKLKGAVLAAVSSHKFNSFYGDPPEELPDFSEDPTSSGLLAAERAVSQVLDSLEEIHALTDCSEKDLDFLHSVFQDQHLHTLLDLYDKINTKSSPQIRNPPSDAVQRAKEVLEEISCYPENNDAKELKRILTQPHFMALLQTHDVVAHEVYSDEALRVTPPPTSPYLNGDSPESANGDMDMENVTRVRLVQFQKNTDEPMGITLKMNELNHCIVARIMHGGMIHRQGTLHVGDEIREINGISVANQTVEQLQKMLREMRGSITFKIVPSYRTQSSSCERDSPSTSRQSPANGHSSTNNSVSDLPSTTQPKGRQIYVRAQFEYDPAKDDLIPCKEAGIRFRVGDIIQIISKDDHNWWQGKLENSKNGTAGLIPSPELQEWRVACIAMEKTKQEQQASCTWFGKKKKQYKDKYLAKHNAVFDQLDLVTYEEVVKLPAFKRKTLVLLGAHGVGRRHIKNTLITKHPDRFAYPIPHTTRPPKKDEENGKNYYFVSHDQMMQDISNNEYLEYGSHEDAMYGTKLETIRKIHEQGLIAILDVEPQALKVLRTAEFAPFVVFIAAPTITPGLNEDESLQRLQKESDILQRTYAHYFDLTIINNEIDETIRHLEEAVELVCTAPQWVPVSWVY", "chain of UniProt P49760 (whole entry, looked up)": "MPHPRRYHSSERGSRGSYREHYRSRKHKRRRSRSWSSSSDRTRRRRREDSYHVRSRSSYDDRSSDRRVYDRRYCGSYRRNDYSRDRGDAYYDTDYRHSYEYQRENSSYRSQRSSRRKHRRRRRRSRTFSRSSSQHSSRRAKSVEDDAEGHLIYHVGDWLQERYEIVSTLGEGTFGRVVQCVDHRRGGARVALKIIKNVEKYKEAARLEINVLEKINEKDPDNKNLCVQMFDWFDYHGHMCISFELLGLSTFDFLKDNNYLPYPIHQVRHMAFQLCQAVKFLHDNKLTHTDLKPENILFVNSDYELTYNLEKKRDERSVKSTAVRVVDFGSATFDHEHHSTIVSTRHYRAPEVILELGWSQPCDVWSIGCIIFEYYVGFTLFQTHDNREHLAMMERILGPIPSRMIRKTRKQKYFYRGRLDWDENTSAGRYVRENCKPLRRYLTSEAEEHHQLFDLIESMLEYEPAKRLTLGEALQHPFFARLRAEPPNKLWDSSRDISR", "chain of UniProt P41743 (whole entry, looked up)": "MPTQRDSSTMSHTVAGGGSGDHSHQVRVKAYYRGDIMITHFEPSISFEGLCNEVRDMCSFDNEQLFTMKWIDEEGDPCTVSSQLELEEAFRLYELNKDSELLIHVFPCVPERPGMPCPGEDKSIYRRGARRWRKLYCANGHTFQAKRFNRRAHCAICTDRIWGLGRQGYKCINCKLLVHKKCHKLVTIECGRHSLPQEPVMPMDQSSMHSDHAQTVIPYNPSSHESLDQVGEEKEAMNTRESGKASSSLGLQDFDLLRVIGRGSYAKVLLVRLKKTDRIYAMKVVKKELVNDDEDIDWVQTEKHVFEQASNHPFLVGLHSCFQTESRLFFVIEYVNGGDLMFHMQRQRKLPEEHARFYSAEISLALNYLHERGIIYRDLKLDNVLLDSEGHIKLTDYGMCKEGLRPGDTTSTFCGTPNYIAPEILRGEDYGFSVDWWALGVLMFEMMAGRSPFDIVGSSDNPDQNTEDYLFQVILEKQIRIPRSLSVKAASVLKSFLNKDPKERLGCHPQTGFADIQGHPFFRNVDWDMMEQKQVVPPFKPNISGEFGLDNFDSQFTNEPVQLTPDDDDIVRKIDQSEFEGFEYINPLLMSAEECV", "chain of UniProt Q9UQB9 (whole entry, looked up)": "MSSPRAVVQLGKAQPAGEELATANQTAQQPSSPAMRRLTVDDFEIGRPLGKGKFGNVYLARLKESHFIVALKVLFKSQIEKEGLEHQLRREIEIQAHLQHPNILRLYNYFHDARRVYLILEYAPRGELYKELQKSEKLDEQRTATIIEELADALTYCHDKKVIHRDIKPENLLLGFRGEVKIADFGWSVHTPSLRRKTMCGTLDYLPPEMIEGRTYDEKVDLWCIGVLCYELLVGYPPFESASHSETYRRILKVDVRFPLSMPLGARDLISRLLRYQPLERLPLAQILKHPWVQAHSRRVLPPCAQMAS", "chain of UniProt Q6P2M8 (whole entry, looked up)": "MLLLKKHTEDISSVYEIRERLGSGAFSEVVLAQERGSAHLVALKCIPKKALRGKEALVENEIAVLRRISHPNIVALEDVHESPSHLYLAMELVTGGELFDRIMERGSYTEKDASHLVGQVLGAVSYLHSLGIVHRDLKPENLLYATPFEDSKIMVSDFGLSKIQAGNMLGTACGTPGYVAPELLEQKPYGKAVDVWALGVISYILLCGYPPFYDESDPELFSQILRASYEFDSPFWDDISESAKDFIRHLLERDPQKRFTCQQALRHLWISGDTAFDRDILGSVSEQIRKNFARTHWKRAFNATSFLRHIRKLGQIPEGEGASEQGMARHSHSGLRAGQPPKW", "chain of UniProt P49674 (whole entry, looked up)": "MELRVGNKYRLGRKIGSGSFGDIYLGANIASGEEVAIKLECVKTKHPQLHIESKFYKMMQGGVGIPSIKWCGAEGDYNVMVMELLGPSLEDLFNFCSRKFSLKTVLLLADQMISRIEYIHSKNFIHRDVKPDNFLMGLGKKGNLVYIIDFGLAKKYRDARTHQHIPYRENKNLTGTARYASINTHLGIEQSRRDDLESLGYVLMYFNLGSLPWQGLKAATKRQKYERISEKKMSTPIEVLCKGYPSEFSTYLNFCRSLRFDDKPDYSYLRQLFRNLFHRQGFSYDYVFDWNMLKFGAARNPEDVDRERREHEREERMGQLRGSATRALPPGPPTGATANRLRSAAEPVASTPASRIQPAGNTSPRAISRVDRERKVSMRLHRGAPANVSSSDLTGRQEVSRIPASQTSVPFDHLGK", "chain of UniProt Q9Y2H1 (whole entry, looked up)": "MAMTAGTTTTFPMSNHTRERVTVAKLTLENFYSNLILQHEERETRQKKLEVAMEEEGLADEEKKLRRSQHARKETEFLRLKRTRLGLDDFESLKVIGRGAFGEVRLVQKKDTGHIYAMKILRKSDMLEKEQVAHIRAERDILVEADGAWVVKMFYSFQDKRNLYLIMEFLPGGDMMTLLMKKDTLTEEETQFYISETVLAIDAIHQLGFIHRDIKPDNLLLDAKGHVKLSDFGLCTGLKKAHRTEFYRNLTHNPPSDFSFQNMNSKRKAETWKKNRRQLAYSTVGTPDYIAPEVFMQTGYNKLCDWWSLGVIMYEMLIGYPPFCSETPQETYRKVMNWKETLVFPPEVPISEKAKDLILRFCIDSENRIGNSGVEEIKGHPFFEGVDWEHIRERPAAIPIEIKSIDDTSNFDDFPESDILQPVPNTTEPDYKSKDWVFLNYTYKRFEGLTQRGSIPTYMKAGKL", "chain of UniProt P54764 (whole entry, looked up)": "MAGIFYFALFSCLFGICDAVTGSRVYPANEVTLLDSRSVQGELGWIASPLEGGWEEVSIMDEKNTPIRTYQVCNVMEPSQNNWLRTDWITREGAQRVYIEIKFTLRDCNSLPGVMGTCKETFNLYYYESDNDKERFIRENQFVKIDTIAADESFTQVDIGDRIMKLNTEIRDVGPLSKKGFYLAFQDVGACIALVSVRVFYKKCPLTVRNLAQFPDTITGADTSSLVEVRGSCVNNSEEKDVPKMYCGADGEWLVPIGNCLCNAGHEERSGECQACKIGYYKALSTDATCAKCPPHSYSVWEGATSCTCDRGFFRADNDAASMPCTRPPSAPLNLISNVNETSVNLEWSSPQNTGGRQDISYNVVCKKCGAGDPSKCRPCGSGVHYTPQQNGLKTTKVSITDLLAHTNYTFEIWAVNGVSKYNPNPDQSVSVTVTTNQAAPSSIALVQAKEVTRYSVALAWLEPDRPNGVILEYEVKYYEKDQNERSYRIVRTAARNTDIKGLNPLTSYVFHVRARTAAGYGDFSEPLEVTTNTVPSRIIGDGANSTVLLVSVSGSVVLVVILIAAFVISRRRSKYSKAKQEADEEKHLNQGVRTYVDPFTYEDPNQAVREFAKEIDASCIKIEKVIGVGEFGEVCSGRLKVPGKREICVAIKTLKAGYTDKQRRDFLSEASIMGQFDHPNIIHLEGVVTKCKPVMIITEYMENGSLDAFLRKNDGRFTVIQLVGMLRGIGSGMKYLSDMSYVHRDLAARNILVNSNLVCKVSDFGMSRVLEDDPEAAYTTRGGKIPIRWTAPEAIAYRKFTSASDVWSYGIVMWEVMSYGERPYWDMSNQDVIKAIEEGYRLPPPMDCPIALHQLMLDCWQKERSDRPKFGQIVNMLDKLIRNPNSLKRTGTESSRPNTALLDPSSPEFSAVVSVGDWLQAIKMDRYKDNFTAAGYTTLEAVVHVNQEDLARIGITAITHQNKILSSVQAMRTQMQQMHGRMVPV", "chain of UniProt O00506 (whole entry, looked up)": "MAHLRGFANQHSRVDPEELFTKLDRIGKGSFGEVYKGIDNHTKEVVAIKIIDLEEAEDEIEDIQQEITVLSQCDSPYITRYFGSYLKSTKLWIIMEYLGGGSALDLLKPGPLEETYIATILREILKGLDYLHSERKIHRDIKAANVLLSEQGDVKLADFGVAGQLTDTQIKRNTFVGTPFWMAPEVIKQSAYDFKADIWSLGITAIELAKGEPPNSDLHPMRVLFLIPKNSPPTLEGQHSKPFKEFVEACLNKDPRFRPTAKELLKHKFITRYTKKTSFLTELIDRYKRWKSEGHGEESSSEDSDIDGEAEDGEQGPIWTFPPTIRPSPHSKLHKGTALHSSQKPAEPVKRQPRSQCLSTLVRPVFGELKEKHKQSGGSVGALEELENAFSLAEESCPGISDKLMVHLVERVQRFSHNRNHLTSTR"}
{"data": "Block 1", "cell line": "mouse MPNST tumor cells", "method": "high-content immunofluorescence imaging", "measured": "nuclear SOX9", "tested at": "10 µM", "time": "12 h", "setting": "mean of 2 replicates", "reference": "DMSO control", "direction": "higher = more nuclear SOX9"}
{"SMILES": "Cc1nc(N)c2nnn(C[C@H]3CN(Cc4nccs4)CCO3)c2n1", "nuclear SOX9 intensity": "103 % of DMSO"}
{"SMILES": "COc1cc2ncnc(Nc3ccc(Oc4ccccc4)cc3)c2cc1OC", "nuclear SOX9 intensity": "156 % of DMSO"}
{"SMILES": "Cc1cc(OCC(=O)O)cc(C)c1Cc1ccc(O)c(C(C)C)c1", "nuclear SOX9 intensity": "105 % of DMSO"}
{"data": "Block 2", "method": "logD(dd/w) and ALogP", "setting": "JT method"}
{"SMILES": "CC(C)C[C@@H]1NC(=O)[C@H](Cc2cscn2)NC(=O)[C@@H](CC(C)C)NC(=O)[C@H](CC(C)C)NC(=O)[C@@H](CCC(=O)N2CCCC2)NC(=O)[C@H](CC(C)C)NC(=O)[C@@H](CC(C)C)NC1=O", "lipophilic permeability efficiency": 2.35}
{"SMILES": "CC(C)C[C@@H]1NC(=O)[C@H](CC(C)C)NC(=O)[C@@H](CC(C)C)NC(=O)[C@@H](C)NC(=O)[C@H](C(C)C)NC(=O)[C@H](C)NC(=O)[C@H](C)NC1=O", "lipophilic permeability efficiency": 1.67}
{"SMILES": "CC(C)C[C@@H]1NC(=O)[C@H](C(C)C)NC(=O)[C@H](C)NC(=O)[C@@H](CC(C)C)NC(=O)[C@@H](CCC(=O)N2CCCC2)NC(=O)[C@H](CC(C)C)NC(=O)[C@@H](CC(C)C)NC1=O", "lipophilic permeability efficiency": 1.84}
{"SMILES": "CC(C)C[C@@H]1NC(=O)[C@H](C(C)C)NC(=O)[C@@H](CC(C)C)NC(=O)[C@@H](CC(C)C)NC(=O)[C@@H](Cc2cscn2)NC(=O)[C@H](CC(C)C)NC(=O)[C@@H](CC(C)C)NC1=O", "lipophilic permeability efficiency": 2.09}
{"SMILES": "CC(C)C[C@@H]1NC(=O)[C@H](C)NC(=O)[C@H](CC(C)C)NC(=O)[C@@H](CC(C)C)NC(=O)[C@H](CC(C)C)NC(=O)[C@H](C)NC(=O)[C@H](CCC(=O)N2CCCC2)NC1=O", "lipophilic permeability efficiency": 1.38}
{"data": "Block 3", "organism": "Sarcocystis neurona", "observed": "parasite growth", "tested at": "10 µM", "time": "96 h", "reference": "untreated"}
{"Compound": "COc1cc(C)c(Cc2cnc(N)nc2N)cc1OC", "log2 fold change": -1.41}
{"Compound": "CN(C)C(=O)C(CCN1CCC(O)(c2ccc(Cl)cc2)CC1)(c1ccccc1)c1ccccc1", "log2 fold change": -0.45}
{"Compound": "CN(C)CCC=C1c2ccccc2COc2ccccc21", "log2 fold change": 0.31}
{"Compound": "NCc1ccc(S(N)(=O)=O)cc1", "log2 fold change": 0.44}
{"Compound": "CN(C)CCOC(c1ccccc1)c1ccccc1", "log2 fold change": 0.25}
{"Compound": "C#C[C@]1(O)CC[C@H]2[C@@H]3CCc4cc(O)ccc4[C@H]3CC[C@@]21C", "log2 fold change": 0.52}
{"data": "Block 4", "SMILES": "CC(C)n1cnc(-c2ccc(F)cc2)c1-c1ncc(C(=O)Nc2ccc(N3CCN(C)CC3)cc2)[nH]1", "method": "phase 2a trial", "host": "idiopathic pulmonary fibrosis patients"}
{"dose": "all arms pooled", "setting": "grade 3 emergent event", "patients with hypothyroidism [%]": 0}
{"dose": "60 mg once daily", "setting": "grade 4 emergent event", "patients with hypothyroidism [%]": 0}
{"dose": "all arms pooled", "setting": "grade 2 emergent event", "patients with hypothyroidism [%]": 0}
{"data": "Block 5", "Structure (SMILES)": "C[C@H](c1ccnc(Nc2nc3ccc(-c4cc(N(C)C)ncn4)cc3[nH]2)c1)N1CCN(C(=O)CC(F)(F)F)CC1", "method": "competition with immobilised ligand", "tested at": "0.1 µM"}
{"target": "FLT4 (Homo sapiens, UniProt P35916)", "observed": "cell-free assay", "remaining binding [%]": 92}
{"target": "PNCK (Homo sapiens, UniProt Q6P2M8)", "observed": "cell-free assay", "remaining binding [%]": 100}
{"target": "CSNK1E (Homo sapiens, UniProt P49674)", "observed": "cell-free assay", "remaining binding [%]": 100}
{"target": "CAMKK1 (Homo sapiens, UniProt Q8N5S9)", "observed": "cell-free assay", "remaining binding [%]": 89}
{"target": "FLT3 (Homo sapiens, UniProt P36888, D835V)", "observed": "cell-free assay", "remaining binding [%]": 32}
{"target": "STK38L (Homo sapiens, UniProt Q9Y2H1)", "observed": "binding", "remaining binding [%]": 65}
{"target": "MAP3K11 (Homo sapiens, UniProt Q16584)", "observed": "cell-free assay", "remaining binding [%]": 92}
{"target": "PRKAA2 (Homo sapiens, UniProt P54646)", "observed": "cell-free assay", "remaining binding [%]": 100}
{"target": "EPHA4 (Homo sapiens, UniProt P54764)", "observed": "cell-free assay", "remaining binding [%]": 98}
{"target": "MYLK (Homo sapiens, UniProt Q15746)", "observed": "cell-free assay", "remaining binding [%]": 100}
{"target": "PRKACA (Homo sapiens, UniProt P17612)", "observed": "cell-free assay", "remaining binding [%]": 100}
{"target": "PRKCI (Homo sapiens, UniProt P41743)", "observed": "cell-free assay", "remaining binding [%]": 100}
{"target": "MAP2K7 (Homo sapiens, UniProt O14733)", "observed": "cell-free assay", "remaining binding [%]": 92}
{"target": "ULK2 (Homo sapiens, UniProt Q8IYT8)", "observed": "cell-free assay", "remaining binding [%]": 100}
{"target": "Tyrosine-protein kinase ABL1, phosphorylated (ABL1, Homo sapiens, UniProt P00519, E255K)", "observed": "binding", "remaining binding [%]": 97}
{"target": "Aurora kinase C (AURKC, Homo sapiens, UniProt Q9UQB9)", "observed": "cell-free assay", "remaining binding [%]": 100}
{"target": "CLK2 (Homo sapiens, UniProt P49760)", "observed": "cell-free assay", "remaining binding [%]": 65}
{"target": "WEE1 (Homo sapiens, UniProt P30291)", "observed": "cell-free assay", "remaining binding [%]": 96}
{"target": "PIK3CD (Homo sapiens, UniProt O00329)", "observed": "cell-free assay", "remaining binding [%]": 100}
{"target": "KIT (Homo sapiens, UniProt P10721, L576P)", "observed": "cell-free assay", "remaining binding [%]": 91}
{"target": "CASK (Homo sapiens, UniProt O14936)", "observed": "cell-free assay", "remaining binding [%]": 100}
{"target": "STK25 (Homo sapiens, UniProt O00506)", "observed": "cell-free assay", "remaining binding [%]": 100}
{"data": "Block 6", "host": "mouse", "matrix": "microsomes or S9", "tested at": "2 µM", "time": "0.5 h"}
{"SMILES": "CCOc1ccc2nc(NC(=O)CN(C)S(=O)(=O)c3ccc(Br)s3)sc2c1", "remaining compound [%]": "< 1"}
{"SMILES": "CCCn1ccnc1C1CC(=O)Nc2cc(O)c(OC)cc21 (centres unmarked)", "remaining compound [%]": 83.4}
{"SMILES": "CC(CC(=O)O)CC(=O)Nc1sc(C(C)C)cc1C(N)=O (centres unmarked)", "remaining compound [%]": 95.5}
{"SMILES": "COC(=O)C1(C(=O)OC)C[C@@H](c2ccccc2)c2ccc(N(C)C)cc2[C@@H]1CC(=O)c1ccccc1", "remaining compound [%]": 1.46}
{"SMILES": "Cn1cc(S(=O)(=O)N2CCCCC2)cc1C(=O)Nc1ccc2c(c1)OCCO2", "remaining compound [%]": 12}
{"note": "A few entries again (block 5):"}
{"target": "MAP3K11 (Homo sapiens, UniProt Q16584)", "observed": "cell-free assay", "remaining binding [%]": 92}
{"target": "PRKAA2 (Homo sapiens, UniProt P54646)", "observed": "cell-free assay", "remaining binding [%]": 100}
{"target": "EPHA4 (Homo sapiens, UniProt P54764)", "observed": "cell-free assay", "remaining binding [%]": 98}
{"target": "MYLK (Homo sapiens, UniProt Q15746)", "observed": "cell-free assay", "remaining binding [%]": 100}
{"target": "PRKACA (Homo sapiens, UniProt P17612)", "observed": "cell-free assay", "remaining binding [%]": 100}
